# Measurements pooled from the literature.
# Every numbered part comes from another study and shows a few of its results, in no order. Values joined by “and” are separate records of one study, mostly repeats; a detail may differ.
# Sequence of UniProt P53778 (whole entry, looked up): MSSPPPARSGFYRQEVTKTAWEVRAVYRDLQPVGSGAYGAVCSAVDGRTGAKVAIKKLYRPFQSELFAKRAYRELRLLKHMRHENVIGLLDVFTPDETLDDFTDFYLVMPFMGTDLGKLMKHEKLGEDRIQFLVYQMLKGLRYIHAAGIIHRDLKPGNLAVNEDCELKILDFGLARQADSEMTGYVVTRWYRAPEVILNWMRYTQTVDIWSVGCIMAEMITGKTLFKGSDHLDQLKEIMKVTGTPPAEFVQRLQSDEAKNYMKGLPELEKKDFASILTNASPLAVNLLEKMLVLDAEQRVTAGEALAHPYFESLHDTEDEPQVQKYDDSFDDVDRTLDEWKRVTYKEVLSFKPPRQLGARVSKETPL
# Sequence of UniProt Q9H093 (whole entry, looked up): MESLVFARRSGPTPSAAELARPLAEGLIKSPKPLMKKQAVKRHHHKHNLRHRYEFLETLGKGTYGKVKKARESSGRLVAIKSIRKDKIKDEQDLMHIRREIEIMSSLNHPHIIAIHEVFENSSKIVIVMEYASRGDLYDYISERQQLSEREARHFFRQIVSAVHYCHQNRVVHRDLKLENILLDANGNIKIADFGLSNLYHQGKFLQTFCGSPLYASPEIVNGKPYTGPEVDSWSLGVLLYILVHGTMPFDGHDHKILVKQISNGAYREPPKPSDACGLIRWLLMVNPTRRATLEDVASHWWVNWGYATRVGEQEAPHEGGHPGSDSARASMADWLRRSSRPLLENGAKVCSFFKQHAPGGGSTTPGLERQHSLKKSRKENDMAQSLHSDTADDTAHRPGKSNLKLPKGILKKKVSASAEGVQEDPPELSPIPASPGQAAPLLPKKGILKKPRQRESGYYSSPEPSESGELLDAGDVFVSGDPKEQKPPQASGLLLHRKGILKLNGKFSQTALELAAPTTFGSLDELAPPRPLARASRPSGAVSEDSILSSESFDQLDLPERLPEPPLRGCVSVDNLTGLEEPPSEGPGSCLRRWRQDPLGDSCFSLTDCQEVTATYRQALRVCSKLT
# Sequence of UniProt P22607 (whole entry, looked up): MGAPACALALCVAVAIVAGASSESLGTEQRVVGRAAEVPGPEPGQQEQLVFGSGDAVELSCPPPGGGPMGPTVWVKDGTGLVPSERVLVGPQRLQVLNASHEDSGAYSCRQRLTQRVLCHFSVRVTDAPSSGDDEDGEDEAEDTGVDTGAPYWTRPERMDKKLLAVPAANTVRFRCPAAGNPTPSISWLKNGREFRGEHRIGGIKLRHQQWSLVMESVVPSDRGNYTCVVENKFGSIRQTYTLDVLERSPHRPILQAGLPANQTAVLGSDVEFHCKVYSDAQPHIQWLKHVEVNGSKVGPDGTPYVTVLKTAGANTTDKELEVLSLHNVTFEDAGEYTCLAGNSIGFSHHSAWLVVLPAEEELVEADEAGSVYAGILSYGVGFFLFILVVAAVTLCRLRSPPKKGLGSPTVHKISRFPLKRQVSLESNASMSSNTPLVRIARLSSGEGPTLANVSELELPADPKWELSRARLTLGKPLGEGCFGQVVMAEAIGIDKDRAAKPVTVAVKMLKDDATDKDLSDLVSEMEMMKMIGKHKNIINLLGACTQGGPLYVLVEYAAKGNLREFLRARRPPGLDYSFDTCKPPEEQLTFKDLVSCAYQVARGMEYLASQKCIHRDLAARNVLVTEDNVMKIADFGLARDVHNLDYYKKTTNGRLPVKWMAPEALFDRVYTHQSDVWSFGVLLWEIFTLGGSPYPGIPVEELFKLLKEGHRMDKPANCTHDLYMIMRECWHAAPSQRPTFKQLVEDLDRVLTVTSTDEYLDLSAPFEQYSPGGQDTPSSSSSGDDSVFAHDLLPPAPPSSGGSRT
# Sequence of UniProt Q9Y2H9 (whole entry, looked up): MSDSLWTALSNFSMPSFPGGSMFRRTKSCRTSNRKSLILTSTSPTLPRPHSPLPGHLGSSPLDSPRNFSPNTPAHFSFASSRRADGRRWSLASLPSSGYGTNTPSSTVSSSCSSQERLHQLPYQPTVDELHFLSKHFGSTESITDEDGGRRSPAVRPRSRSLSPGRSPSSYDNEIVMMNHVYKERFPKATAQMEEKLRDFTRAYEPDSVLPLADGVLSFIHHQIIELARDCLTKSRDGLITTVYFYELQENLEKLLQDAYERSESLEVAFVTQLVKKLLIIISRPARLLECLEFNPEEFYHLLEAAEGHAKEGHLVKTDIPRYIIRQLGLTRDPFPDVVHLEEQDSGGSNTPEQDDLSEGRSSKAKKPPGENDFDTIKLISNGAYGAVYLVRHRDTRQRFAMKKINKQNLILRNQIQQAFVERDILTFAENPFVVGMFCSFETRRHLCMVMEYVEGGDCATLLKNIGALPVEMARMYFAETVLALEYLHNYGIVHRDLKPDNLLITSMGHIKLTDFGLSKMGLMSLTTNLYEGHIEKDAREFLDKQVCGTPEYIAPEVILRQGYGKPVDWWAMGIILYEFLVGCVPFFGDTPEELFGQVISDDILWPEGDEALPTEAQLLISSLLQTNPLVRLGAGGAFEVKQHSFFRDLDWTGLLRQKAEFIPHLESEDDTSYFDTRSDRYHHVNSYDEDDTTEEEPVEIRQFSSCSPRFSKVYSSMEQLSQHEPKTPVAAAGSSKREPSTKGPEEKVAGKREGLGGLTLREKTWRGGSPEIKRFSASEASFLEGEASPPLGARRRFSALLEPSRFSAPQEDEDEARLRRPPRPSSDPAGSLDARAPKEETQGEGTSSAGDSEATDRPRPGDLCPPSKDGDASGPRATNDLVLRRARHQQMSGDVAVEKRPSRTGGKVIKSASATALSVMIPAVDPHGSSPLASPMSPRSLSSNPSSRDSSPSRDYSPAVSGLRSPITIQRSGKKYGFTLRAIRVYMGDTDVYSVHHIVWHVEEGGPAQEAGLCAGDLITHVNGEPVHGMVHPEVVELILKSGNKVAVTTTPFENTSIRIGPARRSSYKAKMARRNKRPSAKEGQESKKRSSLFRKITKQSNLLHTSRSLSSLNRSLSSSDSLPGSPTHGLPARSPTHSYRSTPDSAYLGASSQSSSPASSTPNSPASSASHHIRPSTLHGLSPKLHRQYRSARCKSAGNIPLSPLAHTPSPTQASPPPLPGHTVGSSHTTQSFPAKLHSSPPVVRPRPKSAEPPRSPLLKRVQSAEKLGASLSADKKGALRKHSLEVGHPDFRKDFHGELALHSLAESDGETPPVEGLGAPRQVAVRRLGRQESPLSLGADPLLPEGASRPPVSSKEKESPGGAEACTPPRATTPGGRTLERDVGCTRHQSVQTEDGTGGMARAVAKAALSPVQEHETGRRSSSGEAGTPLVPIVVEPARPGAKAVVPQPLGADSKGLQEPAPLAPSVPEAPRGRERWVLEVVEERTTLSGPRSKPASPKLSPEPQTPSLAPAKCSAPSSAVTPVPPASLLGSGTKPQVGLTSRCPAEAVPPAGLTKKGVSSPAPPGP

# Study 1
# Structure (SMILES): COc1cc(-c2nc3ccc(C(=O)NCCCN(C)C)cc3n2C2CCC2)cc(OC)c1OC
target,test,setting,how to read,remaining binding
"CHEK2 (Homo sapiens, UniProt O96017)","binding, competition with immobilised ligand",1 µM,,100%
"Ribosomal protein S6 kinase alpha-4, N-terminal kinase domain (RPS6KA4, Homo sapiens, UniProt O75676)","binding, competition with immobilised ligand",1 µM,,87%
"LIM domain kinase 2 (LIMK2, Homo sapiens, UniProt P53671)","binding, competition with immobilised ligand",1 µM,,83%
"CDK5 (Homo sapiens, UniProt Q00535)","binding, competition with immobilised ligand",1 µM,,100%
"MAPK12 (Homo sapiens, UniProt P53778)","binding, competition with immobilised ligand",1 µM,,100%
"EPHB2 (Homo sapiens, UniProt P29323)","binding, competition with immobilised ligand",1 µM,,97%
"MAP3K2 (Homo sapiens, UniProt Q9Y2U5)","binding, competition with immobilised ligand",1 µM,,61%
"PIM3 (Homo sapiens, UniProt Q86V86)","binding, competition with immobilised ligand",1 µM,,84%
"FLT1 (Homo sapiens, UniProt P17948)","binding, competition with immobilised ligand",1 µM,,100%
"RET (Homo sapiens, UniProt P07949, V804L)","binding, competition with immobilised ligand",1 µM,,83%
FLT3 ITD D835V human,KINOMEscan,1000 nM,relative to: DMSO control,81%
"EGFR (Homo sapiens, UniProt P00533, G719C)","binding, competition with immobilised ligand",1 µM,,90%
"PIP5K1C (Homo sapiens, UniProt O60331)","binding, competition with immobilised ligand",1 µM,,43%
"MET (Homo sapiens, UniProt P08581, Y1235D)","binding, competition with immobilised ligand",1 µM,,100%
"PNCK (Homo sapiens, UniProt Q6P2M8)","binding, competition with immobilised ligand",1 µM,,90%
"NUAK2 (Homo sapiens, UniProt Q9H093)","binding, competition with immobilised ligand",1 µM,,91%
"PDPK1 (Homo sapiens, UniProt O15530)","binding, competition with immobilised ligand",1 µM,,100%
"EPHB3 (Homo sapiens, UniProt P54753)","binding, competition with immobilised ligand",1 µM,,100%
"BMPR1B (Homo sapiens, UniProt O00238)","binding, competition with immobilised ligand",1 µM,,6.2%
"FGFR3 (Homo sapiens, UniProt P22607)","binding, competition with immobilised ligand",1 µM,,96%
"FGFR1 (Homo sapiens, UniProt P11362)","binding, competition with immobilised ligand",1 µM,,58%
"MAST1 (Homo sapiens, UniProt Q9Y2H9)","binding, competition with immobilised ligand",1 µM,,100%
"BRAF (Homo sapiens, UniProt P15056, V600E)","binding, competition with immobilised ligand",1 µM,,88%
"Ribosomal protein S6 kinase alpha-1, N-terminal kinase domain (RPS6KA1, Homo sapiens, UniProt Q15418)","binding, competition with immobilised ligand",1 µM,,81%
"PIK3CA (Homo sapiens, UniProt P42336, C420R)","binding, competition with immobilised ligand",1 µM,,66%

# Study 2 — mode: degrader; method: automated immunoblot; cell line: HCC1569; time: 24 h
# Target: Membrane-associated tyrosine- and threonine-specific cdc2-inhibitory kinase (PKMYT1, Homo sapiens, UniProt Q99640)
# Residues (Q99640 1-499): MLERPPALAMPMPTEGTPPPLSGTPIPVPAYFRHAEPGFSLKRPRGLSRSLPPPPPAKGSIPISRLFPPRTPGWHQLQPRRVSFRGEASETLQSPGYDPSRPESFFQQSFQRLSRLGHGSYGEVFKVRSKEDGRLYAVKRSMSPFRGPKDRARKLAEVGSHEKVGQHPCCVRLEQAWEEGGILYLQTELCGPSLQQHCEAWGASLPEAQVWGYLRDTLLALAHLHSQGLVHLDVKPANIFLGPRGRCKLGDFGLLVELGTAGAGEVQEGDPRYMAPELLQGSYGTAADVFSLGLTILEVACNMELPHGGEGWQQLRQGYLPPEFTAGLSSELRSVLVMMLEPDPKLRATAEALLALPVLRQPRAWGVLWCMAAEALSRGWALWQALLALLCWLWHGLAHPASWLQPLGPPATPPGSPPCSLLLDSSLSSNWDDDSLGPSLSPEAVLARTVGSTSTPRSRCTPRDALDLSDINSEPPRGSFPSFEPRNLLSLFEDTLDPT
SMILES,Dmax [%]
Cc1ccc(O)c(C)c1-c1cnc2[nH]c(-c3cnc(N4CCC5(CC4)CC(N4CCN(c6ccc(NC7CCC(=O)NC7=O)cc6F)CC4)CO5)nc3)cc2c1C#N (stereo not drawn),75
Cc1ccc(O)c(C)c1-c1cnc2[nH]c(-c3cnc(N4CCC(CN5CCN(c6ccc7c(c6)CN(C6CCC(=O)NC6=O)C7=O)CC5)CC4)nc3)cc2c1C#N (stereo not drawn),87
Cc1ccc(O)c(C)c1-c1cnc2[nH]c(-c3cnc(N4CCC(CN5CCN(c6ccc7c(c6)C(=O)N(C6CCC(=O)NC6=O)C7=O)CC5)CC4)nc3)cc2c1C#N (stereo not drawn),93
Cc1ccc(O)c(C)c1-c1cnc2[nH]c(-c3cnc(N4CCC(CN5CCN(c6ccc(NC7CCC(=O)NC7=O)cc6F)CC5)CC4)nc3)cc2c1C#N (stereo not drawn),91
Cc1ccc(O)c(C)c1-c1cnc2[nH]c(-c3cnc(N4CCC(CN5CCN(c6cc7c(cc6F)c(N6CCC(=O)NC6=O)nn7C)CC5)CC4)nc3)cc2c1C#N,70
Cc1ccc(O)c(C)c1-c1cnc2[nH]c(-c3cnc(N4CCC(CN5CCN(c6cc7c(cc6F)n(C6CCC(=O)NC6=O)c(=O)n7C)CC5)CC4)nc3)cc2c1C#N (stereo not drawn),91

# Study 3 — effect on: binding; mode: competitor; method: NanoBRET; cell line: HEK293
# SMILES: C#Cc1cccc2cc(O)cc(-c3ncc4c(N5CC6CCC(C5)N6)nc(OCC56CCCN5CCC6)nc4c3F)c12
# Target: GTPase HRas (HRAS, Homo sapiens, UniProt P01112)
setting,normalized BRET
123 nM,98.5% and 107% and 83.8% and 98.1%
508 pM,98.5% and 83.4% and 107% and 101%
3.33 µM,78.2% and 61.5% and 74.5% and 91.1%

# Study 4 — effect on: thermal unfolding; method: differential scanning fluorimetry; tested at: 5.5 µM; direction: higher = more unfolded
# SMILES: C[C@@H]1CN(c2ccc(-c3cc(C(=O)NCCOCCOCCOCCOCCOCCOCCNC(=O)/C=C/c4[nH]cc(C(=O)N[C@@H](CC(N)=O)c5ccc(F)c(Cl)c5)c4-c4ccc(Cl)cc4F)ccc3F)cc2NC(=O)c2ccc(F)cc2C(F)(F)F)C[C@H](C)N1C
# WDR5: WD repeat-containing protein 5 (WDR5, Homo sapiens, UniProt P61964)
# DCAF1: DDB1- and CUL4-associated factor 1 (DCAF1, Homo sapiens, UniProt Q9Y4B6)
# Sequence of UniProt Q9Y4B6 (whole entry, looked up): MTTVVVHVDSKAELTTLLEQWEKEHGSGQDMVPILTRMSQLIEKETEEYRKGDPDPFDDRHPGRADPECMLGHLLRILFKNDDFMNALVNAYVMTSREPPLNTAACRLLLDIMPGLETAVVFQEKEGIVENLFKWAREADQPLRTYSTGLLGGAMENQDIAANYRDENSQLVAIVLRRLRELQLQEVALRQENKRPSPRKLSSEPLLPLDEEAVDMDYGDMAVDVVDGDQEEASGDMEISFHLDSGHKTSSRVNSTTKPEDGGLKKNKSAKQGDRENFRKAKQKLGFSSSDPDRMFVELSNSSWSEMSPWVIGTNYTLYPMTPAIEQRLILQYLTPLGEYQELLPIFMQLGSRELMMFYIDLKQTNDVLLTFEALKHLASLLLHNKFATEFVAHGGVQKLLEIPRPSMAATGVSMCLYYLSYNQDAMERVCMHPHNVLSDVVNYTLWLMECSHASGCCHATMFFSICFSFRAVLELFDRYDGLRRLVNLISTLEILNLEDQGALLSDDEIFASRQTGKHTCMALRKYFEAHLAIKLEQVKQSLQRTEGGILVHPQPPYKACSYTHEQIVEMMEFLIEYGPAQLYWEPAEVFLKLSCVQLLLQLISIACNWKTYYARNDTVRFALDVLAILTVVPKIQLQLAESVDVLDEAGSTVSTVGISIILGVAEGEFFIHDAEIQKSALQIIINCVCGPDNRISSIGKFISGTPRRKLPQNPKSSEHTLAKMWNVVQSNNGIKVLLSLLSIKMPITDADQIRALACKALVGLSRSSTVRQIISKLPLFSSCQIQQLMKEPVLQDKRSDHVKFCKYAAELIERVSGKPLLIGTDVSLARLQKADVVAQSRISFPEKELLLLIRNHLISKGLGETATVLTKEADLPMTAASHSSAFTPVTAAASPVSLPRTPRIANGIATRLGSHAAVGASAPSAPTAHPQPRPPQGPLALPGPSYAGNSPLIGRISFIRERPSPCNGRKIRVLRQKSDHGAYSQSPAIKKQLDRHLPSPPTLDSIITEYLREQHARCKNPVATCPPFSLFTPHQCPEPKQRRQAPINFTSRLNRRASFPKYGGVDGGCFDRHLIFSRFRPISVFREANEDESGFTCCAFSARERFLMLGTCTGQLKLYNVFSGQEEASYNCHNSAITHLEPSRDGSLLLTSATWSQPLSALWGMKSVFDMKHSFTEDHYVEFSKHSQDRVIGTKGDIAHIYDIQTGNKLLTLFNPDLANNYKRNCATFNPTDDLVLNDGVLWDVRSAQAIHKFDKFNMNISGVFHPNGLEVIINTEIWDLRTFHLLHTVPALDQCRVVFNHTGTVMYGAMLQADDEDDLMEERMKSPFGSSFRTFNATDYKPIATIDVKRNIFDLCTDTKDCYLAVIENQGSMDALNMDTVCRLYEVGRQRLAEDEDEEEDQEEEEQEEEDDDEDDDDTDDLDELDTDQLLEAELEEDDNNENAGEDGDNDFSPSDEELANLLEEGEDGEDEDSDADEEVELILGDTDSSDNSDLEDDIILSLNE
target,setting,SYPRO Orange fluorescence
WDR5,76.61 °C,55400 a.u.
DCAF1,65.81 °C,52900 a.u.
DCAF1,47.8 °C,16400 a.u.
DCAF1,88.41 °C,33600 a.u.
DCAF1,79.01 °C,40600 a.u.
WDR5,64.21 °C,15700 a.u.
WDR5,46 °C,14800 a.u.
DCAF1,63.41 °C,54100 a.u.
WDR5,39.4 °C,14000 a.u.
DCAF1,36.8 °C,10600 a.u.
WDR5,83.81 °C,63900 a.u.

# Study 5 — effect on: enzyme activity; mode: inhibitor; method: Ub-TR-FRET; matrix: HECT domain; tested at: 100 µM; direction: higher = more chain formation
# Target: E3 ubiquitin-protein ligase NEDD4, HECT domain (Homo sapiens, UniProt P46934)
# Construct (P46934 938-1319, limits assumed): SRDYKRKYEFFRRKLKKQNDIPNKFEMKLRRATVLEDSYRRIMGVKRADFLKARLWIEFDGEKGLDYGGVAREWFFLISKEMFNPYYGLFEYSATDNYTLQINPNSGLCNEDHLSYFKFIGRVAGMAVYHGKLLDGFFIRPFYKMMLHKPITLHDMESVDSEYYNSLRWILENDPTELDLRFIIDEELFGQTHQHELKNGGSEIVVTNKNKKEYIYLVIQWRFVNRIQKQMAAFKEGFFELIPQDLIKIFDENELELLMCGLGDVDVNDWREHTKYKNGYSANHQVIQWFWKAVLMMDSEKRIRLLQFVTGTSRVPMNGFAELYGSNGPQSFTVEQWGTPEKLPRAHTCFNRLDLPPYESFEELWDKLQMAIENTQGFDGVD
SMILES,ubiquitin chain formation AUC
COC(=O)/C=C/C(=O)NCCCN1c2ccccc2CCc2ccc(Cl)cc21,142000 a.u. and 144000 a.u.
CNC(=O)/C=C/CNCCCCN1c2ccccc2CCc2ccc(Cl)cc21.Cl,9970 a.u. and 14000 a.u. and 11900 a.u. and 15500 a.u. and 9750 a.u. and 18000 a.u.
CC(C)ONC(=O)/C=C/CNCCCCN1c2ccccc2CCc2ccc(Cl)cc21.O=C(O)/C=C\C(=O)O,7140 a.u. and 7390 a.u. and 7480 a.u. and 7060 a.u. and 7260 a.u.
CONC(=O)/C=C/CNCCCCN1c2ccccc2CCc2ccc(Cl)cc21.O=C(O)/C=C\C(=O)O,7400 a.u. and 7160 a.u. and 7490 a.u. and 7560 a.u. and 7810 a.u. and 7840 a.u.
N#C/C=C/CNCCCCN1c2ccccc2CCc2ccc(Cl)cc21.O=C(O)/C=C\C(=O)O,8890 a.u. and 10200 a.u. and 9540 a.u. and 8860 a.u. and 9320 a.u. and 9480 a.u.
CN(C)C(=O)/C=C/CNCCCN1c2ccccc2CCc2ccc(Cl)cc21.Cl,100000 a.u. and 101000 a.u. and 105000 a.u.
CNCCCN1c2ccccc2CCc2ccc(Cl)cc21,27700 a.u. and 25700 a.u. and 112000 a.u. and 27100 a.u.
CCOC(=O)/C=C/CNCCCCN1c2ccccc2COc2ccc(Cl)cc21.O=C(O)/C=C\C(=O)O,10500 a.u. and 11100 a.u. and 10400 a.u.
CCOC(=O)/C=C/CNCCCN1c2ccccc2CCc2ccc(Cl)cc21,5910 a.u. and 5270 a.u. and 6230 a.u.
CCOC(=O)/C=C/CNCCCCN1c2cc(Cl)ccc2CCc2cnn(C)c21.O=C(O)/C=C\C(=O)O,6880 a.u. and 6460 a.u. and 5960 a.u. and 5210 a.u. and 7100 a.u. and 5300 a.u.
Cl.NC(=O)/C=C/CNCCCN1c2ccccc2CCc2ccc(Cl)cc21,67600 a.u. and 71500 a.u. and 76000 a.u.
CCOC(=O)/C=C/CN(CCCCN1c2ccccc2CCc2ccc(Cl)cc21)C(C)C.O=C(O)/C=C\C(=O)O,11500 a.u. and 11100 a.u. and 14800 a.u. and 11400 a.u. and 14600 a.u. and 15500 a.u.

# Repeated from above (study 1):
target,test,setting,how to read,remaining binding
"PNCK (Homo sapiens, UniProt Q6P2M8)","binding, competition with immobilised ligand",1 µM,,90%
"NUAK2 (Homo sapiens, UniProt Q9H093)","binding, competition with immobilised ligand",1 µM,,91%
"PDPK1 (Homo sapiens, UniProt O15530)","binding, competition with immobilised ligand",1 µM,,100%
"EPHB3 (Homo sapiens, UniProt P54753)","binding, competition with immobilised ligand",1 µM,,100%
"BMPR1B (Homo sapiens, UniProt O00238)","binding, competition with immobilised ligand",1 µM,,6.2%
